Published values pooled from the literature.
Lines come from different studies, so protocols differ.
Technique: steady-state kinetics
B1: XoxF methanol dehydrogenase (Methylacidiphilum fumariolicum, UniProt I0JWN7); chain NDELIKLEKEPGQWVMQNKNYANTRYSELNQINTKNVSRLRLAWSFSTGALRGHEGGPLVVGTTMYVHSAYPNHVYALDLTQKPYAIKWQYTPVQNSQAVAVACCDVVNRGLAYANGKIFMTTLDGQIIALDANTGKELWKMKHADVTKGETITGAPLVVKDKVLVGVSGGEFGVRGRVGAYDINTGNRVWLAYSQGPDEEVLLDSDFNKEFPQHGGPGDGTKTWPGEQWKLGGGTTWGWYSYDPALDLFYYGTSNPGTWNAEQRKGGDNKWSCTIFARRPDTGKARWAYQMTPWDSWDYDGVNEMILPDLTVKGKKTPCLVHFDRNGFGYVLDRRTGQLIEAQPFVYVNWAKEISKENDRPVEIPEKRTKQGVDTKGICPNSMGGKDQQPAAFSPQTGLFYVPTNNMCMNYEGVEATYTAGAPYVGANVLMYSGHEGKDDYYGAFICYDALKGKRVWEIHEHFPVWSGPVVTAGGLAFYGTMDGWFKAVDIKTGKVLWQQKLGSGIIGNPITFLGPDKKQYVAVYSGVGGWFGIAVAQNLPPDDPYAGLGAVGVAYQAGLPKATTVGGELYVFALE
B2: tsaM1 F253S/H255G/M230N/R216A/S234V/S257H (Comamonas testosteroni, UniProt P94679); chain MFIRNCWYVAAWDTEIPAEGLFHRTLLNEPVLLYRDTQGRVVALENRCCHRSAPLHIGRQEGDCVRCLYHGLKFNPSGACVEIPGQEQIPPKTCIKSYPVVERNRLVWIWMGDPARANPDDIVDYFWHDSPEWRMKPGYIHYQANYKLIVDNLLDFTHLAWVHPTTLGTDSAASLKPVIERDTTGTGKLTITRWYLNDDMSNLHKGVAKFEGKADAWQIYQWSPPALLRNDTGVAPTGTGAPEGRRVPEAVQSRGTHIQTPETETTSHYWFCQARNFDLDDEALTEKIYQGVVVAFEEDRTMIEAHEKILSQVPDRPMVPIAADAGLNQGRWLLDRLLKAENGGTAP
B3: Mj-MAT W387F/Y72W (Methanocaldococcus jannaschii, UniProt Q58605); chain MRNIIVKKLDVEPIEERPTEIVERKGLGHPDSICDGIAESVSRALCKMYMEKFGTILHHNTDQVELVGGHAWPKFGGGVMVSPIYILLSGRATMEILDKEKNEVIKLPVGTTAVKAAKEYLKKVLRNVDVDKDVIIDCRIGQGSMDLVDVFERQKNEVPLANDTSFGVGYAPLSTTERLVLETERFLNSDELKNEIPAVGEDIKVMGLREGKKITLTIAMAVVDRYVKNIEEYKEVIEKVRKKVEDLAKKIADGYEVEIHINTADDYERESVYLTVTGTSAEMGDDGSVGRGNRVNGLITPFRPMSMEAASGKNPVNHVGKIYNILANLIANDIAKLEGVKECYVRILSQIGKPINEPKALDIEIITEDSYDIKDIEPKAKEIANKFLDNIMEVQKMIVEGKVTTF
B4: enzyme D382E (Arabidopsis thaliana, UniProt O82390); chain MNARALLCSSNIHSLYTSNRPPEKTSSSRSLRNLKPSPKSLRVWIYPRNRSSVFRVLVRSSDKSESSNSYYVEGDKVSGNNDVVSDSPSSIVLPWWEEFPKRWVIVLLCFSAFLLCNMDRVNMSIAILPMSAEYGWNPATVGLIQSSFFWGYLLTQIAGGIWADTVGGKRVLGFGVIWWSIATILTPVAAKLGLPYLLVVRAFMGVGEGVAMPAMNNILSKWVPVQERSRSLALVYSGMYLGSVTGLAFSPFLIHQFGWPSVFYSFGSLGTVWLTLWLTKAESSPLEDPTLLPEERKLIADNCASKEPVKSIPWRLILSKPPVWALISCHFCHNWGTFILLTWMPTYYHQVLKFNLMESGLLSVFPWMTMAISANAGGWIAETLVSRGFSVTNVRKIMQTIGFLGPAFFLTQLKHIDSPTMAVLCMACSQGTDAFSQSGLYSNHQDIAPRYSGVLLGLSNTAGVLAGVLGTAATGHILQHGSWDDVFTISVGLYLVGTVIWNLFSTGEKIID
B5: ADA (Homo sapiens, UniProt P00813); chain MAQTPAFDKPKVELHVHLDGSIKPETILYYGRRRGIALPANTAEGLLNVIGMDKPLTLPDFLAKFDYYMPAIAGCREAIKRIAYEFVEMKAKEGVVYVEVRYSPHLLANSKVEPIPWNQAEGDLTPDEVVALVGQGLQEGERDFGVKARSILCCMRHQPNWSPKVVELCKKYQQQTVVAIDLAGDETIPGSSLLPGHVQAYQEAVKSGIHRTVHAGEVGSAEVVKEAVDILKTERLGHGYHTLEDQALYNRLRQENMHFEICPWSSYLTGAWKPDTEHAVIRLKNDQANYSLNTDDPLIFKSTLDTDYQMTKRDMGFTEEEFKRLNINAAKSSFLPEDEKRELLDLLYKAYGMPPSASAGQNL
B6: SULT1B1 K266E (Homo sapiens, UniProt O43704); chain MLSPKDILRKDLKLVHGYPMTCAFASNWEKIEQFHSRPDDIVIATYPKSGTTWVSEIIDMILNDGDIEKCKRGFITEKVPMLEMTLPGLRTSGIEQLEKNPSPRIVKTHLPTDLLPKSFWENNCKMIYLARNAKDVSVSYYHFDLMNNLQPFPGTWEEYLEKFLTGKVAYGSWFTHVKNWWKKKEEHPILFLYYEDMKENPKEEIKKIIRFLEKNLNDEILDRIIHHTSFEVMKDNPLVNYTHLPTTVMDHSKSPFMRKGTAGDWENYFTVAQNEKFDAIYETEMSKTALQFRTEI
B7: KPR (Staphylococcus aureus, UniProt A0A0J9X283); chain MSLSVAIIGPGAVGTTIAYELQQSLPHTTLIGRHAKTITYYTVPHAPAQDIVVKGYEDVTNTFDVIIIAVKTHQLDAVIPHLTYLAHEDTLIILAQNGYGQLEHIPFKNVCQAVVYISGQKKGDVVTHFRDYQLRIQDNALTRQFRDLVQDSQIDIVLEANIQQAIWYKLLVNLGINSITALGRQTVAIMHNPEIRILCRQLLLDGCRVAQAEGLNFSEQTVDTIMTIYQGYPDEMGTSMYYDIVHQQPLEVEAIQGFIYRRAREHNLDTPYLDTIYSFLRAYQQN
B8: asnB E349Q (Escherichia coli, UniProt P22106); chain CSIFGVFDIKTDAVELRKKALELSRLMRHRGPDWSGIYASDNAILAHERLSIVDVNAGAQPLYNQQKTHVLAVNGEIYNHQALRAEYGDRYQFQTGSDCEVILALYQEKGPEFLDDLQGMFAFALYDSEKDAYLIGRDHLGIIPLYMGYDEHGQLYVASEMKALVPVCRTIKEFPAGSYLWSQDGEIRSYYHRDWFDYDAVKDNVTDKNELRQALEDSVKSHLMSDVPYGVLLSGGLDSSIISAITKKYAARRVEDQERSEAWWPQLHSFAVGLPGSPDLKAAQEVANHLGTVHHEIHFTVQEGLDAIRDVIYHIETYDVTTIRASTPMYLMSRKIKAMGIKMVLSGQGSDEVFGGYLYFHKAPNAKELHEETVRKLLALHMYDCARANKAMSAWGVEARVPFLDKKFLDVAMRINPQDKMCGNGKMEKHILRECFEAYLPASVAWRQKEQFSDGVGYSWIDTLKEVAAQQVSDQQLETARFRFPYNTPTSKEAYLYREIFEELFPLPSAAECVPGGPSVACSSAKAIEWDEAFKKMDDPSGRAVGVHQSAYK
B9: SLCO1B1 (Homo sapiens, UniProt Q9Y6L6); chain MDQNQHLNKTAEAQPSENKKTRYCNGLKMFLAALSLSFIAKTLGAIIMKSSIIHIERRFEISSSLVGFIDGSFEIGNLLVIVFVSYFGSKLHRPKLIGIGCFIMGIGGVLTALPHFFMGYYRYSKETNINSSENSTSTLSTCLINQILSLNRASPEIVGKGCLKESGSYMWIYVFMGNMLRGIGETPIVPLGLSYIDDFAKEGHSSLYLGILNAIAMIGPIIGFTLGSLFSKMYVDIGYVDLSTIRITPTDSRWVGAWWLNFLVSGLFSIISSIPFFFLPQTPNKPQKERKASLSLHVLETNDEKDQTANLTNQGKNITKNVTGFFQSFKSILTNPLYVMFVLLTLLQVSSYIGAFTYVFKYVEQQYGQPSSKANILLGVITIPIFASGMFLGGYIIKKFKLNTVGIAKFSCFTAVMSLSFYLLYFFILCENKSVAGLTMTYDGNNPVTSHRDVPLSYCNSDCNCDESQWEPVCGNNGITYISPCLAGCKSSSGNKKPIVFYNCSCLEVTGLQNRNYSAHLGECPRDDACTRKFYFFVAIQVLNLFFSALGGTSHVMLIVKIVQPELKSLALGFHSMVIRALGGILAPIYFGALIDTTCIKWSTNNCGTRGSCRTYNSTSFSRVYLGLSSMLRVSSLVLYIILIYAMKKKYQEKDINASENGSVMDEANLESLNKNKHFVPSAGADSETHC
B10: hflX K210A/N207A (Escherichia coli, UniProt P25519); chain MFDRYDAGEQAVLVHIYFTQDKDMEDLQEFESLVSSAGVEALQVITGSRKAPHPKYFVGEGKAVEIAEAVKATGASVVLFDHALSPAQERNLERLCECRVIDRTGLILDIFAQRARTHEGKLQVELAQLRHLATRLVRGWTHLERQKGGIGLRGPGETQLETDRRLLRNRIVQIQSRLERVEKQREQGRQSRIKADVPTVSLVGYTAAGASTLFNRITEARVYAADQLFATLDPTLRRIDVADVGETVLADTVGFIRHLPHDLVAAFKATLQETRQATLLLHVIDAADVRVQENIEAVNTVLEEIDAHEIPTLLVMNKIDMLEDFEPRIDRDEENKPNRVWLSAQTGAGIPQLFQALTERLSGEVAQHTLRLPPQEGRLRSRFYQLQAIEKEWMEEDGSVSLQVRMPIVDWRRLCKQEPALIDYLI
Chain of UniProt Q9Y274 (whole entry, looked up): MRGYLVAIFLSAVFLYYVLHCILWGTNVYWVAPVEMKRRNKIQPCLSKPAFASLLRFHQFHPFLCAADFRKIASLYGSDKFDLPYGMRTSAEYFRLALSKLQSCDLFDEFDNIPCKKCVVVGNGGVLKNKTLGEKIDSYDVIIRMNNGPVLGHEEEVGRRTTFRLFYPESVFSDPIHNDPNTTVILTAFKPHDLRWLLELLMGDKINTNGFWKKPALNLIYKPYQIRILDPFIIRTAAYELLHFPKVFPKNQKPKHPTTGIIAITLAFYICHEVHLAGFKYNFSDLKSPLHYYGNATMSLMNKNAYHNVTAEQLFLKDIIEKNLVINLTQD

The Km of `B1 (XoxF methanol dehydrogenase)` is reported as 3.62 µM (CO; pH 7.2, 45 °C, with: EuCl3 20 µM, PES 1 mM, DCPIP 80 µM).
`B2` has a Km of 13 µM (COc1cc(C(=O)O)ccc1O; apparent, with: NADH 1 mM).
`B3 (Mj-MAT W387F/Y72W)` has a Km of 130 µM (CSCC[C@H](N)C(=O)O; 55 °C, with: ATP 2.5 mM, methionine 0.05-1 mM).
For `LovD A86V/C40A/C60N (Aspergillus terreus)`, the Km was 660 µM (CCC(C)(C)C(=O)SCCC(=O)OC; 25 °C, 10% DMSO, with: 2 mM MJA).
`ST3GAL6 (Homo sapiens, UniProt Q9Y274)` gave a Km of 360 µM (CC(=O)N[C@H]1[C@H](O[C@H]2[C@@H](O)[C@@H](CO)O[C@@H](O[C@H]3[C@H](O)[C@@H](O)[C@H](Oc4ccc([N+](=O)[O-])cc4)O[C@@H]3CO)[C@@H]2O)O[C@H](CO)[C@@H](O)[C@@H]1O[C@@H]1O[C@H](CO)[C@H](O)[C@H](O)[C@H]1O; pH 6, with: CMP-Neu5Ac).
`B4 (enzyme D382E)` has a Km of 46.2 µM (O=P(O)(O)O; pH 6.5, 25 °C, apparent, not purified).
For `B5 (ADA)`, the Km was 54.9 µM (Nc1ncnc2c1ncn2[C@@H]1O[C@H](CO)C[C@H]1O; HEK293, cell homogenate; pH 5.8, 37 °C, not purified).
With `B6 (SULT1B1 K266E)` the Km was 3.88 µM (Nc1ncnc2c1ncn2[C@@H]1O[C@H](COP(=O)(O)OS(=O)(=O)O)[C@@H](OP(=O)(O)O)[C@H]1O; pH 7.4, 37 °C, monomer, with: 1-naphthol).
`B7 (KPR)` has a Km of 9.6 µM (CC(C)(CO)C(=O)C(=O)O; pH 7.5, 25 °C, substrate inhibition fit, with: NADPH 50 µM).
`ADE5,7 (Cryptococcus neoformans, UniProt J9VYP5)` has a Km of 131 µM (N[C@@H]1O[C@H](COP(=O)(O)O)[C@@H](O)[C@H]1O; pH 8, 37 °C, apparent).
`B8 (asnB E349Q)` gave a Km of 9000 µM (NC(=O)CC[C@H](N)C(=O)O; pH 8, 37 °C, 100 mM NaCl, glutaminase site, with: MgCl2; no ATP).
The Km of `B9 (SLCO1B1)` is reported as 0.43 µM (CC(=O)O[C@@]12CO[C@@H]1C[C@H](O)[C@@]1(C)C(=O)[C@H](O)C3=C(C)[C@@H](OC(=O)[C@H](O)[C@@H](NC(=O)OC(C)(C)C)c4ccccc4)C[C@@](O)([C@@H](OC(=O)c4ccccc4)[C@H]21)C3(C)C; 37 °C, not purified).
`B10 (hflX K210A/N207A)` has a Km of 2130 µM (Nc1nc2c(ncn2[C@@H]2O[C@H](COP(=O)(O)OP(=O)(O)OP(=O)(O)O)[C@@H](O)[C@H]2O)c(=O)[nH]1; pH 8, 37 °C, with: MgCl2 5 mM, NaCl 200 mM).

For quick reference, copied from above:
For `B5 (ADA)`, the Km was 54.9 µM (Nc1ncnc2c1ncn2[C@@H]1O[C@H](CO)C[C@H]1O; HEK293, cell homogenate; pH 5.8, 37 °C, not purified).
